Measured values of several laboratories.
Protocols differ between the studies behind these lines.
MTNR1A: Melatonin receptor type 1A (MTNR1A, Homo sapiens, UniProt P48039)
Sequence of UniProt P48039 (whole entry, looked up): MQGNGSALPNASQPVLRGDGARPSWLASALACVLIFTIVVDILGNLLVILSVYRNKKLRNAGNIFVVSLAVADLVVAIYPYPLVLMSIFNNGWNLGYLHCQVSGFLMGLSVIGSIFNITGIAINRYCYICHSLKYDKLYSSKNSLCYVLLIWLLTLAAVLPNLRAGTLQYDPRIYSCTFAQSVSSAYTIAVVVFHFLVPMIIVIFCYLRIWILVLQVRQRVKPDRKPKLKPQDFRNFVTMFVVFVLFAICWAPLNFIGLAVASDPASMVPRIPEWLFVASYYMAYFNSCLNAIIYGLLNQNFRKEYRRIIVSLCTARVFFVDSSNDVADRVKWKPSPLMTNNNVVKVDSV
CSNK1A1: Casein kinase I isoform alpha (CSNK1A1, Homo sapiens, UniProt P48729)
Sequence of UniProt P48729 (whole entry, looked up): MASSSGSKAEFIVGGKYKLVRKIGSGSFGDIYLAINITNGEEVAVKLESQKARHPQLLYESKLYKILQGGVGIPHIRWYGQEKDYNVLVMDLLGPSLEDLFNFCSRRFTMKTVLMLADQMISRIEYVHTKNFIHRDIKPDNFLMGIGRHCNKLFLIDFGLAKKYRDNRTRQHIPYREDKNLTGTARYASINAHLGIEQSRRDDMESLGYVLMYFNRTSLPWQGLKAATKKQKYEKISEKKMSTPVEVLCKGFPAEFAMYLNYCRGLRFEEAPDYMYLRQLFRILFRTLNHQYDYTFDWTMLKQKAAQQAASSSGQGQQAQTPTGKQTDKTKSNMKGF
CA9: Carbonic anhydrase 9 (CA9, Homo sapiens, UniProt Q16790)
Sequence of UniProt P08913 (whole entry, looked up): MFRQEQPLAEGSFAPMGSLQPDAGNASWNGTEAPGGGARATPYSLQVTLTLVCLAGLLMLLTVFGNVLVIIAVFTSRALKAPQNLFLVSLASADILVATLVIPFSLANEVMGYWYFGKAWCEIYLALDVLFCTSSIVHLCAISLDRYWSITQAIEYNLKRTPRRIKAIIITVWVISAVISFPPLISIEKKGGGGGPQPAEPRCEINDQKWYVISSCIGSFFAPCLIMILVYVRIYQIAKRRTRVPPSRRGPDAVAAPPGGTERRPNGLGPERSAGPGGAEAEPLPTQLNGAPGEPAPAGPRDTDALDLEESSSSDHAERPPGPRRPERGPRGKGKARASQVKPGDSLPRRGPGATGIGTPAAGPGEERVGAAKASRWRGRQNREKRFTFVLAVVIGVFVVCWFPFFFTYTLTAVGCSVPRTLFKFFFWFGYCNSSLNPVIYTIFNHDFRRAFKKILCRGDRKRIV
Sequence of UniProt P48730 (whole entry, looked up): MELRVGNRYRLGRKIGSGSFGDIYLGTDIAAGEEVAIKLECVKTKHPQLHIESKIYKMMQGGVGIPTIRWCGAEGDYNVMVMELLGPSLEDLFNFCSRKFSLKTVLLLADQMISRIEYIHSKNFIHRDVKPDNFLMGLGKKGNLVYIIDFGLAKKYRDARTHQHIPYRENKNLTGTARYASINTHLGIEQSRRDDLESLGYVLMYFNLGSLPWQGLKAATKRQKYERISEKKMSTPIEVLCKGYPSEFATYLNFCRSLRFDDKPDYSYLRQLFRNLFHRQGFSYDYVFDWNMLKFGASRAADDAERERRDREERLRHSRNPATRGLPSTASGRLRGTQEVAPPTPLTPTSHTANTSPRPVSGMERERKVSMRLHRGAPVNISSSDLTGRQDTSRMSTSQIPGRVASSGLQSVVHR
Sequence of UniProt O94804 (whole entry, looked up): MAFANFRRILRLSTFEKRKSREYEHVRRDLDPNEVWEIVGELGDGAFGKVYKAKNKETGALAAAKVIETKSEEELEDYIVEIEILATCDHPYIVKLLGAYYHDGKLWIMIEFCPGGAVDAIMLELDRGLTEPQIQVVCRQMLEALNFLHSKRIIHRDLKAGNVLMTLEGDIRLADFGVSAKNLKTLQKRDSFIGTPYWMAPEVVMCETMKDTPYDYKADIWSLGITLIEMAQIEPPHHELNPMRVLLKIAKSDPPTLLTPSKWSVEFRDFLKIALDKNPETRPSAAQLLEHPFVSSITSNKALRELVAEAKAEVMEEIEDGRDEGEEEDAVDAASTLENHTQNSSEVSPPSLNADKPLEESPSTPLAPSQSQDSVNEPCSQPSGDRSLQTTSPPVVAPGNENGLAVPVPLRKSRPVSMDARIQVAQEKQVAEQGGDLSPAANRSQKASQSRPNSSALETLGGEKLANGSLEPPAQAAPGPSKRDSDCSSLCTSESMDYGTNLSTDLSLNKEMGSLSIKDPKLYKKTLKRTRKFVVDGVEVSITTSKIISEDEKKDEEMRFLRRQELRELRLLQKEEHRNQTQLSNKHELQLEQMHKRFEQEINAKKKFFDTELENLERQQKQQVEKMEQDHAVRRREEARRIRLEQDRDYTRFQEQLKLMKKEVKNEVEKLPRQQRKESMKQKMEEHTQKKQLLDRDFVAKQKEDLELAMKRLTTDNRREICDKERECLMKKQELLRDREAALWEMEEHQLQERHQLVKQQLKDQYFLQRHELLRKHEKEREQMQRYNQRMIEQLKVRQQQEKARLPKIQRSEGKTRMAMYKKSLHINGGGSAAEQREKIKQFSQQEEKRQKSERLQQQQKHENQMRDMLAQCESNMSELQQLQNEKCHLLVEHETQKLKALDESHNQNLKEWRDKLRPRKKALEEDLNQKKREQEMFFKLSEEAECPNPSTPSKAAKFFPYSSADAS
Sequence of UniProt P0DMS8 (whole entry, unmodified, looked up): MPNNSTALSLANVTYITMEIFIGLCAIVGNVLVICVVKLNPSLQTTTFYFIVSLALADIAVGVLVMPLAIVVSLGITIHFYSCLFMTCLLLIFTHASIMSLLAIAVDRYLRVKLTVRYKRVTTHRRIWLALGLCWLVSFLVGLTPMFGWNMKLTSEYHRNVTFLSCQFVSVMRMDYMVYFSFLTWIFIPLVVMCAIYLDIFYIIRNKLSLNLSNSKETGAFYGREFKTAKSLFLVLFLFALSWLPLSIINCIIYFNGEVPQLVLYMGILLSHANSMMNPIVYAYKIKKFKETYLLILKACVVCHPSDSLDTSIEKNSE

COC(=O)c1cccc(N(C)Cc2ccncc2)n1  EC50 (MTNR1A; cAMP, agonist, luciferase): 7.88 nM
OCc1cccc2ccncc12  Kd (CSNK1A1; binding, SPR): > 50 µM
NS(=O)(=O)c1ccc(NC(=S)N(Cc2cccc(O)c2)CC2CC2)cc1  IC50 (CA9; enzyme activity, inhibitor): 20.9 nM
CN(C)c1ncnc2c1ncn2[C@@H]1O[C@H](CO)[C@@H](O)[C@H]1O  EC50 (Adenosine receptor A3 (ADORA3, Homo sapiens, UniProt P0DMS8, L264N); G protein activation, agonist): 98000 nM
NS(=O)(=O)c1ccc(C(=O)N2CCc3sccc3C2c2ccc(Cl)cc2)cc1[N+](=O)[O-] (stereo not drawn)  IC50 (CA9; enzyme activity, inhibitor): 46 nM
Cc1cc(Oc2ncccc2CN2CCN(c3cc(Cl)cc(Cl)c3)CC2)ccc1-c1c(C)c(=O)[nH]c(=O)n1C  Ki (Alpha-2A adrenergic receptor (ADRA2A, Homo sapiens, UniProt P08913); ligand displacement, radioligand): 874 nM
CCn1nc(C(=O)N2CCc3c(cccc3OC)C2)ccc1=O  EC50 (MTNR1A; cAMP, agonist, luciferase): 44.9 nM
c1ccc(-c2nnc(NCc3ccccn3)o2)cc1  Kd (CSNK1A1; binding, SPR): > 50 µM
Cc1ccc(NC(=O)Nc2cccc3c2CCN(C(=O)c2ccc(S(N)(=O)=O)c(C)c2)C3)cc1  IC50 (CA9; enzyme activity, inhibitor): 38 nM
CCOC(=O)c1nc(N(C)C(C)C[S+](C)[O-])ccc1Br (stereo not drawn)  EC50 (MTNR1A; cAMP, agonist, luciferase): 33.8 nM
O=C(Nc1ccccc1)Nc1ccccn1  Kd (CSNK1A1; binding, SPR): > 50 µM
NS(=O)(=O)c1ccc(Br)c(C(=O)Nc2cccc(NC(=O)c3ccco3)c2)c1  IC50 (CA9; enzyme activity, inhibitor): 92 nM
CCOC(=O)c1nc(N2CCC(C(N)=O)C2)ccc1Br (stereo not drawn)  EC50 (MTNR1A; cAMP, agonist, luciferase): 106 nM
N#Cc1ccccc1C#CCO  Kd (CSNK1A1; binding, SPR): > 50 µM
Cc1cnc(-c2ccc(-c3ccc(NC(=O)Nc4c(F)cc(F)cc4F)cc3F)c3c2C(=O)NC3)[nH]1  Kd (Serine/threonine-protein kinase 10 (STK10, Homo sapiens, UniProt O94804); binding, competition with immobilised ligand): 0.0001 µM
COc1ccc(-c2oc3ncnc(NCCCN4CCOCC4)c3c2-c2ccc(OC)cc2)cc1  Kd (CSNK1A1; binding, SPR): > 50 µM
NS(=O)(=O)c1ccc(C(=O)Nc2ccc(Cl)cc2NC(=O)c2ccco2)cc1Cl  IC50 (CA9; enzyme activity, inhibitor): 282 nM
COC(=O)c1cccc(N(C)CCc2cnccn2)n1  EC50 (MTNR1A; cAMP, agonist, luciferase): 1440 nM
Cc1ccc(NC(=S)NCc2ccc(S(N)(=O)=O)cc2)cc1NC(=O)CN1CCCCC1  IC50 (CA9; enzyme activity, inhibitor): 127 nM
Cc1n[nH]c(N)c1-c1ccccc1  Kd (Casein kinase I isoform delta (CSNK1D, Homo sapiens, UniProt P48730); binding, SPR): > 50 µM
CC1CCN(C(CNC(=O)Nc2ccc(S(N)(=O)=O)cc2)c2cccs2)CC1 (stereo not drawn)  IC50 (CA9; enzyme activity, inhibitor): 123 nM
COc1ccc(CN2CCOc3ccc(Br)cc32)cc1O  EC50 (MTNR1A; cAMP, agonist, luciferase): 55.3 nM
CC(NC(=O)c1ccccc1NC(=O)c1ccco1)c1ccc(S(N)(=O)=O)cc1 (stereo not drawn)  IC50 (CA9; enzyme activity, inhibitor): 50 nM
CCN1CCc2c(sc(NC(=O)c3ccc(OC)cc3OC)c2C(N)=O)C1  Kd (CSNK1A1; binding, SPR): > 50 µM
